Results of several laboratories.
A part holds a random share of what one study measured. Positions count from the first letter of the parent shown.

Study 1
Target: UBE2Q2 UBC core domain (UniProt Q8WVN8)
Sequence of UniProt Q8WVN8 (whole entry, looked up): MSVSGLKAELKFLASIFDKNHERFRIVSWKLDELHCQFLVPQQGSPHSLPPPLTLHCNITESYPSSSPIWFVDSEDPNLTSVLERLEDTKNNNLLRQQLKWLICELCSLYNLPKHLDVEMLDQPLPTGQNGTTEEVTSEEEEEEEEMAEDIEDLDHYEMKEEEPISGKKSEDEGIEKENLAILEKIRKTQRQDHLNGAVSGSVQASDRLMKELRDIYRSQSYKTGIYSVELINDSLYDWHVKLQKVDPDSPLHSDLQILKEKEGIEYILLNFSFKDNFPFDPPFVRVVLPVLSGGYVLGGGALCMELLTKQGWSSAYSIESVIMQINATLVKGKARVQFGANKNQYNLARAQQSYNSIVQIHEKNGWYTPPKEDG
Method: yeast two-hybrid
Matrix: yeast
Notes: mostly zero background
Baseline: not given
Direction: higher = stronger interaction
B1: RNF133 RING domain (UniProt Q8WVZ7); chain DEEINPNGDSCVICFERYKPNDIVRILTCKHFFHKNCIDPWILPHGTCPICKCDILKVLGIQ
B2: UBOX5 RING domain (UniProt O94941); chain EQPGSILGPECASCKRVFSPYFKKEPVYQLPCGHLLCRPCLGEKQRSLPMTCTACQRPVASQDVLR
B3: RNF121 RING domain (UniProt Q9H920); chain MPTKHLSDSVCAVCGQQIFVDVSEEGIIENTYRLSCNHVFHEFCIRGWCIVGKKQTCPYCKEKVDLKRMFS
Sequence | lacZ reporter activity
GSRLQEINDVCAICYHEFTTSARITPCNHYFHALCLRKWLYIQDTCPMCHQKVYIEDDIK (RNF139 RING domain (UniProt Q8WU17)) | 0
FDGDVDPDLKCALCHKVLEDPLTTPCGHVFCAGCVLPWVVQEGSCPARCRGRLSAKELN (PDZRN3 RING domain (UniProt Q9UPQ7)) | 0
B1 (RNF133 RING domain) | 0
AVPSGLEENLCKICMDSPIDCVLLECGHMVTCTKCGKRMNECPICRQYVIRAVHVF (RFFL RING domain (UniProt Q8WZ73)) | 0
KLRKLKEAMLCMVCCEEEINSTFCPCGHTVCCESCAAQLQSCPVCRSRVEHVQHVY (MYLIP RING domain (UniProt Q8WY64)) | 0
B2 (UBOX5 RING domain) | 0
B3 (RNF121 RING domain) | 0

Study 2
Target: FOS, bZIP domain (human)
Method: DHFR protein complementation
Matrix: yeast
Notes: single substitutions, most at no-binding floor
Baseline: wild-type JUN-FOS pair
Direction: higher = stronger binding
Starting sequence: JUN, bZIP domain (human); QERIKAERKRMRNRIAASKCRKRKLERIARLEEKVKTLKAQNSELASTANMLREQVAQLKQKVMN; partner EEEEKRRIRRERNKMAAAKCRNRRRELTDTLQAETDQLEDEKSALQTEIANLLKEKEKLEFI
Variant | binding fitness [natural log]
S43C | -0.0624
L31Q | -0.239
E54Y | -0.262
L38V | -1.06
K34N | -0.109
N42D | -1.54
E33V | -0.334
A46C | -0.278
A40E | 0.0251
L52G | -1.22
E32Y | -0.329
T37V | -0.0186
K34I | -0.369
R30V | 0.199
L38P | -1.24
L31W | -0.455
L59S | -1.09
A29G | -0.185
A46I | -0.142
E44N | -0.264
T37E | 0.0721
L45T | -1.34
K36E | -0.0199
E33Y | -0.71
L52A | -1.24

Study 3
Target: Prothrombin, mature alpha-thrombin (F2, Homo sapiens, UniProt P00734)
Method: aptamer microarray, sandwich
Form: DNA with 2'F-ANA
Matrix: in vitro
Concentration: 200 nM
Notes: whole 15-mer aptamer, many near background
Together with: Cy3 exosite-II aptamer, 400 nM
Direction: higher = stronger binding
Oligonucleotide: GGTTGGTGTGGTTGG
Modification | mean fluorescence intensity
2'F-ANA at 4 9 14 | 94.1 a.u.
2'F-ANA at 1 3 5 6 7 9 | 64 a.u.
2'F-ANA at 1 3 4 6 8 10 12 13 14 15 | 84 a.u.
2'F-ANA at 1 5 9 10 11 13 | 42.8 a.u.
2'F-ANA at 1 3 4 5 7 8 9 13 14 15 | 45.2 a.u.
2'F-ANA at 3 5 6 11 12 14 | 52.2 a.u.
2'F-ANA at 1 3 9 10 11 15 | 77 a.u.
2'F-ANA at 2 3 5 6 7 9 11 12 | 152 a.u.
2'F-ANA at 2 3 4 6 8 10 14 | 164 a.u.
2'F-ANA at 1 2 5 9 10 12 14 | 62.2 a.u.
2'F-ANA at 2 3 4 6 7 8 10 12 15 | 280 a.u.
2'F-ANA at 1 3 5 7 10 11 12 13 | 46.2 a.u.
2'F-ANA at 3 5 7 9 10 11 14 | 55.5 a.u.
2'F-ANA at 4 6 7 8 12 14 | 148 a.u.
2'F-ANA at 1 4 5 6 7 12 | 116 a.u.
2'F-ANA at 1 5 7 12 13 | 76.6 a.u.
2'F-ANA at 1 6 8 9 10 12 13 15 | 68.3 a.u.
2'F-ANA at 3 4 5 6 7 10 15 | 49.6 a.u.
2'F-ANA at 3 4 6 7 8 9 10 | 286 a.u.

Study 4
Target: CCNE2, cyclin fold, Cln2 fusion (human)
Method: yeast growth competition, sequencing
Matrix: yeast
Notes: strong parent motif
Baseline: not given
Direction: higher = stronger binding
Starting sequence: RBL1 docking peptide (human); GSAKRRLFGEDPP; partner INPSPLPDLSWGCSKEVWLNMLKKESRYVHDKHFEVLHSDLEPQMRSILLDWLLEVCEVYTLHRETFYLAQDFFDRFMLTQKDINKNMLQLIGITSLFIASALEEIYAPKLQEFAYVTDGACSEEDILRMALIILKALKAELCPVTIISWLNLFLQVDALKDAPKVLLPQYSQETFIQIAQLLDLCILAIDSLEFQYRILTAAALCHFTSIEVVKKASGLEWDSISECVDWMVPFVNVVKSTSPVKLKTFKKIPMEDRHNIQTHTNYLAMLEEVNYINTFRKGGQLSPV
Variant | normalised enrichment score
E10W | 2.49
G1M | 4.17
D11G | 3.66
P13L | 5.01
P12D | 4.3
E10L | 3.33
K4H | 0.424
F8E | -0.4
E10K | 2.45
R6K | 4.02
D11Y | 4.89
G9N | 4.85
S2D | 3.27
A3L | 1.12
L7Y | 1.23
E10R | 2.5
G1H | 4.82
D11H | 3.1
K4N | 1.04
E10S | 4.19
P12M | 4.06
L7Q | 0.731
P12W | 4.52
L7M | 0.352
S2Q | 3.7
